Assay results gathered from unrelated publications.
Protocols differ between the studies behind these lines. “And” joins repeats or separate records; there may be more than shown. ± gives the spread as reported.
NR4A1: Nuclear receptor subfamily 4 group A member 1 (NR4A1, Homo sapiens, UniProt P22736)
Sequence of UniProt P22736 (whole entry, looked up): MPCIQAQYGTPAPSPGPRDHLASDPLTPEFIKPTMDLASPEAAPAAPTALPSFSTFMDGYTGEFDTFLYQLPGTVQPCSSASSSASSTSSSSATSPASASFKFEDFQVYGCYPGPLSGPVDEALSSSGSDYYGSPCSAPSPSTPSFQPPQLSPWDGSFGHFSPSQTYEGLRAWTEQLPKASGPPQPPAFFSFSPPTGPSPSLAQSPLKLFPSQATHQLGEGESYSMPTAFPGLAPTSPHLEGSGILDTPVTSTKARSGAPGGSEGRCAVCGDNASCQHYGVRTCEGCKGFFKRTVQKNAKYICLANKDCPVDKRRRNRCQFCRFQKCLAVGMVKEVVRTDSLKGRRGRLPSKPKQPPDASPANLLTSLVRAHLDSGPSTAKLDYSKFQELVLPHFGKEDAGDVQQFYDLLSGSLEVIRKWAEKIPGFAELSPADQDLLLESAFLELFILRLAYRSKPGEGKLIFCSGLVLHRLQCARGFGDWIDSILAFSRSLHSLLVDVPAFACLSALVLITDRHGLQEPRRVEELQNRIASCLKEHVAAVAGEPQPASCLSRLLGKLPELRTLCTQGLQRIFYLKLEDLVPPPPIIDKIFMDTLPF
T1: RNA, tetracycline-neomycin hybrid riboswitch; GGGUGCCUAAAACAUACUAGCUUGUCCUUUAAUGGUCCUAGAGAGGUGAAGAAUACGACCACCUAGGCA
T2: ssDNA, aptamer; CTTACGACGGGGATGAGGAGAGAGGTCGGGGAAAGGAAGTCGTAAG
Sequence of UniProt Q9NYV8 (whole entry, unmodified, looked up): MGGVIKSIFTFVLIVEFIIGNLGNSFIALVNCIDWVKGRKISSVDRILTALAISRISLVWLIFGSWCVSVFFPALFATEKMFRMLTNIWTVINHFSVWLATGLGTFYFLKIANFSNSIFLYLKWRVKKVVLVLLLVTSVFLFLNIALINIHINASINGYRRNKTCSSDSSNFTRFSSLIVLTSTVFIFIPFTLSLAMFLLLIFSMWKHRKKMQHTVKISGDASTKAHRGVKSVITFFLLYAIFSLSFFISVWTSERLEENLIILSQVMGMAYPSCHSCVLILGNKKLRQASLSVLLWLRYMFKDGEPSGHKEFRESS
Sequence of UniProt P51575 (whole entry, unmodified, looked up): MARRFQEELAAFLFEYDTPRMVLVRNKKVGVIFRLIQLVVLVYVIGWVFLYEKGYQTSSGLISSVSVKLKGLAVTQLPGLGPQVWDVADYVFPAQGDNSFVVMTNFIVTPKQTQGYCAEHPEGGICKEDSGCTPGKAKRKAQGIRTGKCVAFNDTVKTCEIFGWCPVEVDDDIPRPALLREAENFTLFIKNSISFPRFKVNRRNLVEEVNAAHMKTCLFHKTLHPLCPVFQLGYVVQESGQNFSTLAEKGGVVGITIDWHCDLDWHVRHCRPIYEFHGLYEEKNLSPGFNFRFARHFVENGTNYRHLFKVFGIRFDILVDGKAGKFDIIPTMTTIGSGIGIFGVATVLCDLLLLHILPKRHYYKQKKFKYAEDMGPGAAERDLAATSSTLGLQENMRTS
Sequence of UniProt Q16774 (whole entry, unmodified, looked up): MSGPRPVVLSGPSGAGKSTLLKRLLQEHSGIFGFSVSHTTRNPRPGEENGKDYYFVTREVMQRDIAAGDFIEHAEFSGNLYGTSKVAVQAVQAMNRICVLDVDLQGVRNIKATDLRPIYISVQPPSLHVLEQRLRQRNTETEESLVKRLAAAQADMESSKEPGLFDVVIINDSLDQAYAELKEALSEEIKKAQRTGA
Sequence of UniProt Q64663 (whole entry, unmodified, looked up): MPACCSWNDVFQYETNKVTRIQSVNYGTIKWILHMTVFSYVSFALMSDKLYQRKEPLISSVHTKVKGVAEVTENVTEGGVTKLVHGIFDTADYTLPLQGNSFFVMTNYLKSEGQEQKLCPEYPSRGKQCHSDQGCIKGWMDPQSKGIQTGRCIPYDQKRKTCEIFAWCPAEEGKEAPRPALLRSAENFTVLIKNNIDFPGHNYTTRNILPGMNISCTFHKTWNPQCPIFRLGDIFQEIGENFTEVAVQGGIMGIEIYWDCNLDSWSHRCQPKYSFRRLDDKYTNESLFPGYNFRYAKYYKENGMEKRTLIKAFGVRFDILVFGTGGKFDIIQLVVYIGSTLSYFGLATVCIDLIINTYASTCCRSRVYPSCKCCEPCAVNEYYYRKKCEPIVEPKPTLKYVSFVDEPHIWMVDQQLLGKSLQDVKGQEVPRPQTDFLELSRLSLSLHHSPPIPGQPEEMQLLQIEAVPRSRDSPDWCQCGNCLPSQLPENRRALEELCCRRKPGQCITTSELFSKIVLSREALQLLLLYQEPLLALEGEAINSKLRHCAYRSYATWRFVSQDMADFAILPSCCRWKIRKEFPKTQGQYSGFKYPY
Sequence of UniProt P40073 (whole entry, looked up): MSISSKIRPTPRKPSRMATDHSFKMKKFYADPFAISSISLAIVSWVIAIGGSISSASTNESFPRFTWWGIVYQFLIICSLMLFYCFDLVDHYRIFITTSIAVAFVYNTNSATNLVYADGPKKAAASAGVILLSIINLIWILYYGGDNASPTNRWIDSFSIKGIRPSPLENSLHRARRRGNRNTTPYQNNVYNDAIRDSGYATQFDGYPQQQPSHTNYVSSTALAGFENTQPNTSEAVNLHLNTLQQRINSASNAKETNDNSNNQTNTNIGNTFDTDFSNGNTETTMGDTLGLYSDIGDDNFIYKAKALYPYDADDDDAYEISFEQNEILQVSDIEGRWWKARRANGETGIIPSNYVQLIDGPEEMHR
Sequence of UniProt Q15059 (whole entry, unmodified, looked up): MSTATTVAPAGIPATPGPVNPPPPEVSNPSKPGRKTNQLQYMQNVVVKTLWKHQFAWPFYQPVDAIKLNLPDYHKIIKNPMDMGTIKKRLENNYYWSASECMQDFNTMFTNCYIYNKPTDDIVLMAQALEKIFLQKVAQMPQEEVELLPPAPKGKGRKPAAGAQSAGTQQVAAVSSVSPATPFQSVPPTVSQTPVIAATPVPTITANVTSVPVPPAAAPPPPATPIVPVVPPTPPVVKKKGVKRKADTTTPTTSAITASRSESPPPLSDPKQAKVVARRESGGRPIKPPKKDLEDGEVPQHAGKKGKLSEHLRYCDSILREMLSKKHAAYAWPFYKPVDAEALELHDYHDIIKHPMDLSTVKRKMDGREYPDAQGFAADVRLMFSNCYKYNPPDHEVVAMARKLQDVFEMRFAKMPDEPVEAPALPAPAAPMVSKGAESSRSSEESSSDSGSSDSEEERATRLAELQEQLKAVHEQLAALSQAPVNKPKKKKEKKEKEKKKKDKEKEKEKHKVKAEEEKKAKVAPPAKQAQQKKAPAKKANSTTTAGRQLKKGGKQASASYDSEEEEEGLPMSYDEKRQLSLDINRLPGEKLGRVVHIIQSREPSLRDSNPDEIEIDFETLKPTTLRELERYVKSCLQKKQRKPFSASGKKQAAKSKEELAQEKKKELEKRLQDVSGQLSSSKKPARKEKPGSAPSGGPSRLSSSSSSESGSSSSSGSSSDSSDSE
Sequence of UniProt Q969H0 (whole entry, looked up): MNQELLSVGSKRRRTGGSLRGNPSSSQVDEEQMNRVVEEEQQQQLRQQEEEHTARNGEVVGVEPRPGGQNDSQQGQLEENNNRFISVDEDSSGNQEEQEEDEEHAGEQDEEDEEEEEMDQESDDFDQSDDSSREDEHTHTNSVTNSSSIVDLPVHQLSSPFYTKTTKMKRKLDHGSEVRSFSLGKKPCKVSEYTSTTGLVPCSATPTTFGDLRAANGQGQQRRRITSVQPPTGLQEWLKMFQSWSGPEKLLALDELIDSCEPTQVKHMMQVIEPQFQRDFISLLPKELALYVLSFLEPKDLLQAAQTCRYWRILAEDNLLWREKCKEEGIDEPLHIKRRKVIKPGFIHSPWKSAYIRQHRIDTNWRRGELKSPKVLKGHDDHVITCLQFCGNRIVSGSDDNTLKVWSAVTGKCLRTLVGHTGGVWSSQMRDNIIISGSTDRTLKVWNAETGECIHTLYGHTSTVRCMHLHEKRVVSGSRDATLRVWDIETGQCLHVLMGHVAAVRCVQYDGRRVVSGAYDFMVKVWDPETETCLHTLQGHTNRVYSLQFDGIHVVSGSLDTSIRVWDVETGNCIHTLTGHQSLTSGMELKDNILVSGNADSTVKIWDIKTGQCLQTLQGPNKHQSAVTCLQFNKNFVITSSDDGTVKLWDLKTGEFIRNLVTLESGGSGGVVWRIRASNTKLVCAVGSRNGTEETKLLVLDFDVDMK
Sequence of UniProt Q9UBL9 (whole entry, unmodified, looked up): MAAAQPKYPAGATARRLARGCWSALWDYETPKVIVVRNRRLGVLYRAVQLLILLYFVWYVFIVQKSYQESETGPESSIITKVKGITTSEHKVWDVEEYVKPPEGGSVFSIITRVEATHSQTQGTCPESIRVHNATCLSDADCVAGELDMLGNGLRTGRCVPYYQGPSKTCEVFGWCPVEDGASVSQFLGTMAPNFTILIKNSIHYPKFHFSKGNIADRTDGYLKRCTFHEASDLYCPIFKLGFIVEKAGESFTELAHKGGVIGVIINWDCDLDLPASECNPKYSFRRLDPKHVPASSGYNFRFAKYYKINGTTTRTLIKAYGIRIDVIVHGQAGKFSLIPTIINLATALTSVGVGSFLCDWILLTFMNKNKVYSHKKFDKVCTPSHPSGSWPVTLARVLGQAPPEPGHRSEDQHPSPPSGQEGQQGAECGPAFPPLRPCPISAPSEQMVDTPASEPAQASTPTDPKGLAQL
Sequence of UniProt Q91WU0 (whole entry, looked up): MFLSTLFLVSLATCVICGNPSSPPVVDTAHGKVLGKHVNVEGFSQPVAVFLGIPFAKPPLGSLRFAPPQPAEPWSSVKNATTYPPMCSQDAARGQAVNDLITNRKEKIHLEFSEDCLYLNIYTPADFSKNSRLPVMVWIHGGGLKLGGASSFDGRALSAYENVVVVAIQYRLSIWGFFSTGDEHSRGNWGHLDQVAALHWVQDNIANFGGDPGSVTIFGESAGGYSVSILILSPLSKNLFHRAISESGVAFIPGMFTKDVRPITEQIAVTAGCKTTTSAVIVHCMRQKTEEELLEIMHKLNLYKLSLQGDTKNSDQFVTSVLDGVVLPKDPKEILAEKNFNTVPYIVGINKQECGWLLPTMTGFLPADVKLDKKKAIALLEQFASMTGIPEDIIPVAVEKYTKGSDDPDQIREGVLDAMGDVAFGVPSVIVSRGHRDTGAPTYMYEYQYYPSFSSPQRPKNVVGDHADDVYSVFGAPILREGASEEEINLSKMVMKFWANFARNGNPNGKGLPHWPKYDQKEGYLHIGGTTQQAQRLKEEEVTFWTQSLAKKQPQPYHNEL

For Nc1nc2c(ncn2[C@@H]2O[C@H](COP(=O)(O)OP(=O)(O)OP(=O)(O)O)C[C@H]2O)c(=O)[nH]1, the incorporation efficiency was 87% (DNA-directed RNA polymerase subunit beta' / DNA-directed RNA polymerase subunit beta (rpoC/rpoB, Escherichia coli, UniProt P0A8T7+P0A8V2); RNA extension, denaturing gel; Escherichia coli, elongation complex, 6-MI template; 5 µM, 10 min, 25 °C).
Cc1cccc(N2CC(C(=O)O)CC2=O)c1 (stereo not shown) — result for “log fold enrichment”: -0.0174 (FBXW7 (Homo sapiens, UniProt Q969H0); binding, affinity selection mass spectrometry; reference: other proteins in batch).
For Nc1ncnc2c1ncn2[C@@H]1O[C@H](C[C@@H](N)CC[C@H](N)C(=O)O)[C@@H](O)[C@H]1O, “ΔH of binding” read -9.5 ± 0.224 kcal/mol (O-methyltransferase (Sorghum bicolor, UniProt A0A1B6PFV1); concentration not given, with: PTR+).
Under “fast tau on”, Nc1nnc(-c2cccc(Cl)c2Cl)c(N)n1 is recorded as 67.2% (Sodium channel protein type 5 subunit alpha (SCN5A, Homo sapiens, UniProt Q14524); sodium current, patch clamp; 25 µM, holding -120 mV).
For COc1ccc(-c2nn3c(-c4ccco4)nnc3s2)cc1OC, binding inhibition read “inhibited” (dCTP pyrophosphatase 1 (Homo sapiens, UniProt Q9H773); inhibitor, competition gel profiling; concentration not given).
For NC[C@@H]1O[C@H](O[C@H]2[C@@H](O)[C@H](O[C@@H]3[C@@H](O)[C@H](N)C[C@H](N)[C@H]3O[C@H]3O[C@H](CN)[C@@H](O)[C@H](O)[C@H]3N)O[C@@H]2CO)[C@H](N)[C@@H](O)[C@@H]1O, binding read “binds” (T1, RNA, tetracycline-neomycin hybrid riboswitch; in-line probing; 72 h, Mg2+ 10 mM, K+ 100 mM).
For C#CCCOC(=O)[C@]1(C)C=C(C(=O)OC(C)(C)C)C(=O)CC1, the fraction bound was 0.639 (Mitogen-activated protein kinase 8 (MAPK8, Homo sapiens, UniProt P45983); D-peptide binding, inhibitor, FP peptide displacement; 6.25 µM; lower is stronger displacement).
NCCS(=O)(=O)O — result for “normalised MST signal”: -0.015 (Sodium- and chloride-dependent taurine transporter (SLC6A6, Homo sapiens, UniProt P31641, Y138A); binding, microscale thermophoresis; 122 nM, room temperature, with: 50 nM labelled protein; higher = more binding).
The normalized current of Nc1ncnc2c1ncn2[C@@H]1O[C@H](COP(=O)(O)OP(=O)(O)OP(=O)(O)O)[C@@H](O)[C@H]1O is reported as 1 and 0.988 (P2X purinoceptor 7 (P2rx7, Rattus norvegicus, UniProt Q64663, I214A/Q143A); ion current, agonist, two-electrode voltage clamp; Xenopus laevis oocytes; 2700 µM; reference: highest concentration response).
CC(=O)N[C@H](C(=O)N[C@@H](CC(N)=O)C(=O)N[C@@H](CCCCN)C(=O)N1CCC[C@H]1C(=O)N[C@@H](CC(C)C)C(=O)N1CCC[C@H]1C(=O)N1CCC[C@H]1C(=O)N[C@@H](CC(C)C)C(=O)N1CCC[C@H]1C(=O)N[C@H](C(=O)N[C@@H](C)C(N)=O)C(C)C)C(C)C gave a wavenumber of 2253.6 ± 1 cm⁻¹ (High osmolarity signaling protein SHO1, SH3 domain (SHO1, Saccharomyces cerevisiae, UniProt P40073); ligand binding, FTIR spectroscopy, refers to: asymmetric stretch band C; pH 7.0, SHO1 complex, with: 4 mM peptide).
The ΔBRET of O=C(O)c1ccccc1Nc1cccc(C(F)(F)F)c1 is reported as -0.0123 and -0.00619 and 0.031 and -0.00455 and -0.0242 and 0.00424 and -0.00254 (Taste receptor type 2 member 14 (TAS2R14, Homo sapiens, UniProt Q9NYV8); G-protein dissociation, TRUPATH gustducin BRET; 3 µM, wild-type receptor, unit not given; reference: vehicle).
With COC(=O)c1cn(C)c2ccc(-c3cccnc3)cc12 the activation was 0.64 fold (NR4A1; reporter gene, NBRE reporter full-length; 10 µM; reference: vehicle).
CN1CCC(CNc2ccc3ncc(-c4cccc(OC(F)(F)F)c4)n3n2)CC1 gave a response of greater than 50% (5-hydroxytryptamine receptor 2B (HTR2B, Homo sapiens, UniProt P41595); calcium flux; 10 µM; reference: control).
Nc1ncnc2c1ncn2[C@@H]1O[C@H](CO[P@](=O)(O)O[P@](=O)(O)O[P@@](=O)(O)S)[C@@H](O)[C@H]1O has a ΔH of -0.803 kcal/mol (GUK1 (Homo sapiens, UniProt Q16774); binding, isothermal titration calorimetry; molar ratio 1.319, fitted curve).
For CCCC[C@@H]1NC(=O)[C@H](Cc2ccc(O)cc2)NC(=O)[C@@H]2CCCN2C(=O)[C@H](CC(=O)O)NC(=O)[C@H](C)NC(=O)[C@H](Cc2ccccc2)NC(=O)[C@@H]2CSCCC(=O)N3CN(CN(C3)C(=O)CCSC[C@H](NC(C)=O)C(=O)N[C@@H](CC(C)(C)C)C(=O)N3CCC[C@H]3C(=O)N[C@@H](CCC(=O)O)C(=O)N[C@H](CCCCNC(=O)CCc3cn(CCOCCOCCOCCN(CCOCCOCCOCCC(=O)N[C@H]4CSCCC(=O)N5CN6CN(C5)C(=O)CCSC[C@H](NC(=O)[C@@H](CC(=O)O)NC(=O)[C@H](Cc5cccc7ccccc57)NC(=O)[C@@H]5CCCN5C4=O)C(=O)N[C@@H](CCSC)C(=O)N[C@@H](CCCCNC(=N)N)C(=O)N[C@@H](CC(=O)O)C(=O)N[C@@H](Cc4c[nH]c5ccccc45)C(=O)N[C@@H](CO)C(=O)N[C@@H]([C@@H](C)O)C(=O)N4CCC[C@H]4C(=O)N4C[C@H](O)C[C@H]4C(=O)N[C@@H](Cc4c[nH]c5ccccc45)C(=O)N[C@H](C(N)=O)CSCCC6=O)CCOCCOCCOCCn4cc(CCC(=O)NCCCC[C@H]5NC(=O)[C@H](CCC(=O)O)NC(=O)[C@@H]6CCCN6C(=O)[C@H](CC(C)(C)C)NC(=O)[C@@H](NC(C)=O)CSCCC(=O)N6CN7CN(C6)C(=O)CCSC[C@H](NC(=O)[C@H](Cc6ccc(O)cc6)NC(=O)[C@@H]6CCCN6C5=O)C(=O)N[C@@H](Cc5ccccc5)C(=O)N[C@@H](C)C(=O)N[C@@H](CC(=O)O)C(=O)N5CCC[C@H]5C(=O)N[C@@H](Cc5ccc(O)cc5)C(=O)N[C@@H](CCCC)C(=O)N[C@H](C(N)=O)CSCCC7=O)nn4)nn3)C(=O)N3CCC[C@H]3C(=O)N[C@@H](Cc3ccc(O)cc3)C(=O)N2)C(=O)CCSC[C@@H](C(N)=O)NC1=O, the Emax was 70 fold (Tumor necrosis factor receptor superfamily member 9/Nectin-4 (Homo sapiens, UniProt Q07011+Q96NY8); reporter gene, agonist; HT-1376 coculture with reporter cells; reference: background).
The inhibition of Clc1cncc(OC[C@@H]2CN(CCN3CCc4ccccc43)CCO2)c1 is reported as 97.3% (D(4) dopamine receptor (DRD4, Homo sapiens, UniProt P21917); radioligand binding; concentration not given, with: [3H]N-methylspiperone).
With Nc1nc2c(ncn2[C@@H]2O[C@H](COP(=O)(O)O)[C@@H](O)[C@H]2O)c(=O)[nH]1 the reaction rate was -0.165 s⁻¹ and 0.0661 s⁻¹ and 0.0464 s⁻¹ (GUK1 (Homo sapiens, UniProt Q16774, R148A); enzyme activity, NADH-coupled; 62.5 µM).
With O=C1CCC(N2Cc3cc(NC(=O)c4cn5ccccc5n4)ccc3C2=O)C(=O)N1 (stereo not shown) the degradation time was less than 3 h (Cereblon/Casein kinase I alpha (CSNK1A1/CRBN, Homo sapiens, UniProt P48729+Q96SW2); degrader, Western blot time-course; MOLT-4; 1 µM).
O=C(CCCc1ccccc1)C(=O)NCCc1ccc(Oc2ccc(C(F)(F)F)cn2)cc1: “probe-enriched protein abundance” 444000 a.u. (Carboxylesterase 1F (Ces1f, Mus musculus, UniProt Q91WU0); inhibitor, refers to: CES1F; mouse, WAT cytosol proteome; 10 µM; reference: DMSO, lower = stronger inhibition).
For Cc1ncsc1-c1ccc(CNC(=O)[C@@H]2C[C@H](O)CN2C(=O)[C@@H](NC(=O)C2(F)CC2)C(C)(C)C)c(OCCc2ccc(CN3CCN(c4cc(-c5ccccc5O)nnc4N)CC3)cc2)c1, “cooperativity factor alpha” read 1.5 (Protein polybromo-1, BD5 (PBRM1, Homo sapiens, UniProt Q86U86); ternary complex binding, TR-FRET competition; with: VCB complex).
With Cc1cc(Nc2cc(N3CCN(C)CC3)nc(Sc3ccc(NC(=O)C4CC4)cc3)n2)[nH]n1 the remaining activity was 105% (Rho-associated protein kinase 2 (ROCK2, Homo sapiens, UniProt O75116); kinase activity, KinaseProfiler; 0.03 µM, species human; reference: control).
Nc1ncnc2c1ncn2[C@@H]1O[C@H](COP(=O)(O)OP(=O)(O)OP(=O)(O)O)[C@@H](O)[C@H]1O gave a Hill coefficient of 1.4 ± 0.2 (P2X purinoceptor 2 (P2RX2, Homo sapiens, UniProt Q9UBL9, R130E); channel activation, agonist; transfected HEK293 cells; physiological divalent cations, with: 2 mM Ca2+ and 0.5 mM Mg2+).
With O=C(C=Cc1ccccc1)Nc1cccc(-c2ccnc(N3CCC(CO)CC3)c2)c1 the binding response was 93.8 RU (NR4A1; SPR; 10.0 µM).
With Nc1ncnc2c1ncn2[C@@H]1O[C@H](COP(=O)(O)O)[C@@H](O)[C@H]1O the Kd was 105 µM (T2, ssDNA, aptamer; ITC).
CC(=O)N[C@H](C(=O)N1C[C@H](O)C[C@H]1C(=O)NCc1ccc(-c2scnc2C)cc1)C(C)(C)SCCCCCCNC(=O)C[C@@H]1N=C(c2ccc(Cl)cc2)c2c(sc(C)c2C)-n2c(C)nnc21 gave a ΔH of -4.7 ± 0.3 kcal/mol (VHL/BRD3, BD2; with Elongin B/C (Homo sapiens, UniProt P40337+Q15059); ternary complex binding, ITC; 25 °C, with: VHL-ElonginB-ElonginC titrated into compound:PROTAC:Brd3^BD2 complex).
Nc1ncnc2c1ncn2[C@@H]1O[C@H](COP(=O)(O)CP(=O)(O)OP(=O)(O)O)[C@@H](O)[C@H]1O has a calcium influx of 37.1% and 44.2% and 56.5% (P2X purinoceptor 1 (P2RX1, Homo sapiens, UniProt P51575, F188L); calcium influx; 100 nM; reference: ionomycin response).
CC[C@@H]1[C@H](F)C(=O)N[C@@H]1COc1nccc2cc(C(N)=O)c(OC)cc12 gave an inhibition of 12.1% (3-phosphoinositide-dependent protein kinase 1 (PDPK1, Homo sapiens, UniProt O15530); ATP-site probe binding, ActivX profiling, refers to: PDK1; THP-1 cell lysate; 0.2 mM, Lys1 site).
NC(=O)c1ccc[n+]([C@@H]2O[C@H](COP(=O)([O-])OP(=O)(O)OC[C@H]3O[C@@H](n4cnc5c(NCCNC(=O)CCCCCNC(=O)CCCCCNC(=O)CCCC[C@@H]6SC[C@@H]7NC(=O)N[C@@H]76)ncnc54)[C@H](O)[C@@H]3O)[C@@H](O)[C@H]2O)c1 has an apparent Km of 2 µM (Protein mono-ADP-ribosyltransferase PARP14 (PARP14, Homo sapiens, UniProt Q460N5); enzyme auto-modification, substrate, DELFIA).
